Results of several laboratories.
Each numbered part is a random draw from the data of one study; scales do not carry over between parts.

Study 1
Target: Hepatocyte nuclear factor 3-beta, forkhead domain (FOXA2, Homo sapiens, UniProt Q9Y261, residues 142-269)
Method: protein-binding microarray
Molecule type: hairpin DNA
Medium: in vitro
Concentration: not given
Setting: whole hairpin DNA, median over replicate spots
Reference: not given
Direction: higher = stronger binding
Quantity: median fluorescence
Constant ends, left off below: GAGGCCA … TGGCCTCACACTC
Construct (chain): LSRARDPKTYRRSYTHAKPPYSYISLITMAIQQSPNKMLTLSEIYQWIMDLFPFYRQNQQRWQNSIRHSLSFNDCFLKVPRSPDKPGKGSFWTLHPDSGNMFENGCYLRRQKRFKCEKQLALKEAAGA
Sequence = TGCACACAACGCCTCCTGGCGTTGTGTGCA; value = 3360 a.u.
Sequence = CGTAAACAACGCCTCCTGGCGTTGTTTACG; value = 3690 a.u.
Sequence = GGCAAACAACGCCTCCTGGCGTTGTTTGCC; value = 3780 a.u.
Sequence = TGCAAACCGCGCCTCCTGGCGCGGTTTGCA (5mC at 29); value = 3500 a.u.
Sequence = TGTAACGAACGCCTCCTGGCGTTCGTTACA (5mC at 13); value = 3160 a.u.
Sequence = TGTAACCAACGCCTCCTGGCGTTGGTTACA; value = 3040 a.u.
Sequence = TGTAACCGACGCCTCCTGGCGTCGGTTACA (5mC at 30); value = 3370 a.u.
Sequence = AGCAAACAACGCCTCCTGGCGTTGTTTGCT; value = 3900 a.u.

Study 2
Target: RING finger protein unkempt homolog, zinc fingers 1-6, SBP tag (UNK, Homo sapiens, UniProt Q9C0B0, residues 30-357)
Chain of UniProt Q9C0B0 (30-357, looked up): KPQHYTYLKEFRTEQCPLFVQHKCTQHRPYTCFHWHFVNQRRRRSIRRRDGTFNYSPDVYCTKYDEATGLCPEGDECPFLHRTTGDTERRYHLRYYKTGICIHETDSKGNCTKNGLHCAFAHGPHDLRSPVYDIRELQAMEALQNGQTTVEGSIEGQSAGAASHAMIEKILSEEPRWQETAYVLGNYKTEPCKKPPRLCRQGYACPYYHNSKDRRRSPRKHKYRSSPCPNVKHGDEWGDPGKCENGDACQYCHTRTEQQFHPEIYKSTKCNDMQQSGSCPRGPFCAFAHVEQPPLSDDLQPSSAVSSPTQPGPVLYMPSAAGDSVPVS
Method: RNA Bind-n-Seq
Molecule type: RNA
Medium: in vitro
Concentration: 100 nM
Setting: RNA with constant flanks, vertebrate orthologous sites, ends assumed
Reference: input RNA pool
Direction: higher = stronger binding
Quantity: bound/input enrichment
Sequence = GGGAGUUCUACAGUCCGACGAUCGUGUUUUGUACAGGGCAUUCUCUGUACUAGUUUGUUGUGGUUAUAAAACAAUUAGCAGAAUAGCCUACAUUUGUAUUUAUUUUCUAUUCCAUACUUCUGCCCACGUUGUUUUCUCUCAAACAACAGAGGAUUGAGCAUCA; value = 1.42 ratio
Sequence = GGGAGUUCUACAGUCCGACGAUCCCAGUUUUCCAUAUAGGGUUGGCCUCAAAUCUAUAGGAUUUUUGACAAAUGUACCAUAUCUAGUUGUGUUGUUUUACUAUUUUUUUUAUUAGCCUGUAAAUAAAGAUGGCAUCUCUCCUACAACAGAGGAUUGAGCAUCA; value = 1.23 ratio
Sequence = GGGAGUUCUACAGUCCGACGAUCAAAAUACUGGAUGCAGUGUAGAAAUUAUCGAAGGCAGUGACUUCAGCUUUAUAUAUAUUGUUAGUUUUAAAGUCAUCUACUUUUAUUUAAACUUCUAAAUAGCUAUUUCUCUUUGUAAAGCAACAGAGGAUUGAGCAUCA; value = 0.65 ratio
Sequence = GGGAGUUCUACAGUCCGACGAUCCAGCAGAUUCUCUCAUAGGGAGAGCUGCACACAUUGCUGUUCUUGAUUCAGAAAUAUUUUUAGAAAAAUUCUUUCUUGUUGCUGCCCUAAAAUAUUUUCAGUAGAGAAAAGCAUUGUCAGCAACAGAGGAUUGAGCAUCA; value = 0.295 ratio
Sequence = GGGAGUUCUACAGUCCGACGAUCCAGUGCCAUGGUUGAUGGGUCUGAGCUCAAAAAAGUGCGAUCCAAUUCGCGCAUUUACCAUCGCUACUUUCUCCUUGACGCCGACAUGCAGUCUUUGAGAUGGGAACCUUCAAAGAAGGACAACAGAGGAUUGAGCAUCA; value = 0.156 ratio
Sequence = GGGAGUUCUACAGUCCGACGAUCUCGGUCCCCUGGGCUGGGACAGAUUUUUUUUAACGUCUUGAAAUUUAAAUUCUGUGCUUGUAGGAGACUGUAACCUUUUUGUCUUUUUUUUUUUAAACAAAACAACCUCCACCUCCAGUGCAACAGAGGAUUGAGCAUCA; value = 0.394 ratio
Sequence = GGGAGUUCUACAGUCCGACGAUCCAGGGCUGGCCCCAAUCCCACCUCUGUUCAUUCUGUAAACUACAGCCUGUAAAUAACACUUAGCAUUCCUAUUGUAACAAAAUUAAUUUUUAUGAAAUAAAUUAUAUUUCCUAGUCUAAUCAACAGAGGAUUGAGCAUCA; value = 0.875 ratio
Sequence = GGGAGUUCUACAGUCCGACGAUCCUUAAAGUCAUUUUUCCACAUUUCCUGUAAAUAAUGGAUAAUCAUUUUUAUUUUAUUUUUAAGUACUGUUUUAACAAUGUGGAUAGACCAUAAAUGUACUUGCUGAAUUCAUUCAUGUUUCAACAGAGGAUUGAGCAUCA; value = 0.166 ratio

Study 3
Target: Interferon regulatory factor 5, full length, phosphomimetic (IRF5, Homo sapiens, UniProt Q13568-2, residues 1-514, S451D/S453D/S456D/S462D)
Method: protein-binding microarray
Molecule type: double-stranded DNA, one strand shown
Medium: in vitro
Concentration: 940 nM top
Setting: 60-bp whole probe
Added: salmon DNA 0.4 mg/ml
Reference: random background probes
Direction: higher = stronger binding
Quantity: fitted relative affinity
Constant ends, left off below: GCCTAGCAC … GTCTTGATTCGCTTGACGCTGCTG
Sequence = CCCGTTCACCCACGACCCTTGTGCTAG; value = 0.501 z-score
Sequence = TTAGTTATCAGACTGGATTAGTGCTAG; value = -0.15 z-score
Sequence = TTAGGTCTCGGATTCGGTTAGTGCTAG; value = 1.84 z-score
Sequence = TTAGGTATCGGGTTTCGGTCAGTGCTA; value = 7.53 z-score
Sequence = TTAGGTCTCCTTTGCCTTTAGTGCTAG; value = 0.263 z-score
Sequence = TATGGTATGCTCATGACAAAGTGCTAG; value = -0.382 z-score
Sequence = TTAGGTCTCGGTCTCGGCTAGTGCTAG; value = 4.79 z-score
Sequence = ATGATTGGTTGAACATGAACGTGCTAG; value = -0.184 z-score

Further values, each from its own experiment
Structure (SMILES) = Cc1cc(-c2nnc(Cn3cnc4c3c(=O)n(C)c(=O)n4C)o2)c(C)o1; test system = human, microsomes or S9; setting = 2 µM, 0.5 h; quantity = remaining compound; value = 70%
